Experimental data of several laboratories.
± marks the error that the study gave.

SMILES | test | test system | setting | scale | measurement | result
CNCCOC12CC3(C)CC(C)(CC(Cn4ncc(-c5ccc(N6CCc7cccc(C(=O)Nc8nc9ccccc9s8)c7C6)nc5C(=O)O)c4C)(C3)C1)C2 |  | anaesthetised male beagle dogs | intravenous bolus, 0.03 mg/kg, 30 min | reference: baseline | systemic vascular resistance change | 9%
CN[C@@H](C)C(=O)N[C@H]1CN(S(=O)(=O)c2cccc(S(=O)(=O)N3CC[C@H]4CC[C@@H](C(=O)NC(c5ccccc5)c5ccccc5)N4C(=O)[C@@H](NC(=O)[C@H](C)NC)C3)c2)CC[C@H]2CC[C@@H](C(=O)NC(c3ccccc3)c3ccccc3)N2C1=O | LC-MS/MS | human, advanced solid tumours, plasma | intravenous, 20 mg weekly, day 15 |  | AUC(0-t) | 352 ± 73.8 ng·h/mL
CCCCC1=NC2(CCCC2)C(=O)N1Cc1ccc(-c2ccccc2S(=O)(=O)Nc2noc(C)c2C)c(COCC)c1 |  | healthy adult volunteers, plasma | oral, 1600 mg, single dose, fasted, crushed tablet |  | Tmax | 5 h
c1ccc(CN2CCCN3CCN(Cc4ccccc4)CCCN(CC2)Cc2cccc(n2)C3)cc1 |  | 5 M HCl | 90 °C |  | copper(II) complex dissociation half-life | 20.3 h
Cc1c(C(=O)Nc2ccc(N3C[C@@H](C)O[C@@H](C)C3)nc2)cccc1-c1ccc(OC(F)(F)F)cc1 | PK model | mouse | oral, 40 mg/kg/day |  | plasma-to-tumour rate constant | 0.0076 h⁻¹
COc1cc2c3c(n(CCCN4CCOCC4)c(=O)c2cc1OC)-c1cc2c(cc1C3=O)OCO2 |  | beagle dog, female, plasma | intravenous infusion, 50 mg/m^2, 1 h infusion, vehicle 2 |  | t1/2 | 7.9 ± 2.2 h
CCc1cc(C(=O)NC)c2nccc(N3CCc4c(cc(Cn5ccnc5)cc4-c4cn(C)nc4C(F)(F)F)C3=O)c2c1 |  | Sprague Dawley rat | oral, 100 mg/kg once daily, day 3, 7-day toxicology study |  | body weight | 234 ± 3.7 g
CNC(=O)c1ccc(-c2cnc3ncc(Cc4ccc5ncccc5c4)n3n2)cc1F | refers to: Ascites | cancer patients | oral, 600 mg twice daily, all expansion cohorts, grade 3-4 |  | patients with adverse event | 5%
CO[C@H]1/C=C/O[C@@]2(C)Oc3c(C)c(O)c4c(c3C2=O)C2=NC3(CCN(CC(C)C)CC3)NC2=C(NC(=O)/C(C)=C\C=C\[C@H](C)[C@H](O)[C@@H](C)[C@@H](O)[C@@H](C)[C@H](OC(C)=O)[C@@H]1C)C4=O |  | CD-1 mouse, female, plasma | intravenous, 5 mg/kg |  | Vd | 3.5 L/kg
N#Cc1cccc(-c2ccc3ncc(-c4cc(F)cc(F)c4)c(N4CCC(N)CC4)c3c2)c1O |  | human, urine and faeces | oral, 20 mg, 14C-labelled | reference: dose | radioactivity recovered | 41%
OCC1=C[C@@H](O)[C@@H]2C=CO[C@@H](O[C@@H]3O[C@H](CO)[C@@H](O)[C@H](O)[C@H]3O)[C@H]12 | post-procedure stability | rat plasma | 8 ng/mL, 1 h, room temperature |  | accuracy | 84.1%
COc1nnc2ccc(N3CCC(c4ccc(OCCN5CCN(C)C(=O)[C@H]5C)cc4)CC3)nn12 |  | patients, plasma | oral, 40 mg once daily, multiple dose, monotherapy |  | AUC(0-t) | 0.618 µM·h
NS(=O)(=O)c1cc(C(=O)O)c(NCc2ccco2)cc1Cl | refers to: diarrhoea | healthy men | oral, 8 days, treatment-emergent, crossover trial |  | subjects with adverse event | 0%
CC(C)c1nc(N(C)S(C)(=O)=O)nc(-c2ccc(F)cc2)c1/C=C/[C@@H](O)C[C@@H](O)CC(=O)O | population pharmacokinetic model | people living with HIV | oral, dose not given, bootstrap median |  | central volume of distribution | 144 L
N=C(N)NCCNC(=O)C1(Nc2ccccc2)CCN(Cc2ccccc2)CC1 |  | male Sprague-Dawley rats, plasma | intravenous, 2.5 mg/kg |  | volume of distribution | 1.2 ± 0.3 L
CC(C)[C@H](C(=O)Nc1ccc(C(=O)NO)cc1)c1ccccc1 |  | whole blood | 100 ng/mL, 0 h, 4 °C, stability on ice |  | accuracy | 107%
CCC(=O)N(CCC(c1ccc2c(c1)OCO2)c1ccccc1OC)Cc1ccccc1 (centres unmarked) |  | female athymic nude mouse, blood | i.p., 60 mg/kg twice daily, 14 days, group mean |  | Ca | 8.93 mg/dL
Cc1ccc([C@@H]2O[C@H](CO)[C@@H](O)[C@H](O)[C@H]2O)cc1Cc1ccc(-c2ccc(F)cc2)s1 |  | Japanese type 2 diabetes patients | 400 mg, day 15, 24 h urine collection | reference: baseline | urinary potassium excretion change | 1.5 mEq
CCc1c(-c2ccccc2)c(-c2ccccc2)nn1-c1ccccc1-c1cccc(OCC(=O)O)c1 |  | female Sprague-Dawley rat, uterus | oral, 10 mg/kg, 4 h |  | concentration | 1830 ng/g
CCn1ncc2c1-c1cnc(N)c(c1)O[C@H](C)c1cc(F)ccc1-c1nn(C)nc1C2 |  | female athymic nude mice, PDX model, plasma | oral, 0.04 mg/kg twice daily, 1 h, 5 days dosing |  | free plasma concentration | 5.7 ± 0.7 nM
O=C(O)CCN1C(=O)CSC1=S |  | Bama miniature pig, excised skin | 10 mM, 8 h, 30% ethanol in saline donor |  | permeation rate | 0.92 ± 0.054 µmol/cm²/h
Cc1ccc(C(=O)N(CCCN)C(c2nc3snc(C)c3c(=O)n2Cc2ccccc2)C(C)C)cc1 (centres unmarked) | refers to: Fatigue | human patients | intravenous, 16 mg/day, CTCAE grade ≥3 |  | patients with adverse events | 0%

SMILES | test | test system | setting | scale | measurement | result
C=CC(=O)Nc1cc(Nc2ncc(C(=O)OC(C)C)c(-c3cn(C)c4ccccc34)n2)c(OC)cc1N(C)CCN(C)C |  | healthy human, urine | oral, 40 mg single dose, 0-48 h, arithmetic mean |  | amount excreted in urine | 0.53 mg
CCn1cc(C(=O)N2CCOCC2)c(=O)c2cc(NC3Cc4ccccc4C3)cnc21 |  | human, fasted | oral tablet, 300 mg single dose, arithmetic mean |  | AUC(0-inf) | 11200 ng·h/mL
CCN1/C(=C/C(C)=O)Sc2ccc(F)cc21 |  | cynomolgus monkey | oral, 30 mg/kg, 2 h post-dose | reference: pre-dose | heart rate change | 109 ± 20.9%
COc1cc(Nc2ncc3c(n2)-c2ccc(Cl)cc2C(c2c(F)cccc2OC)=NC3)ccc1C(=O)O | refers to: decreased lymphocyte count, all grades | cancer patients, phase 1/2 | oral, dose not given, added: pembrolizumab |  | patients with adverse event | 75%
C=CC(=O)NC1CCN(c2ncc3ncnc(Nc4ccc(Oc5ccc6c(c5)ncn6C)c(C)c4)c3n2)CC1 | refers to: total radioactivity | healthy male human, whole blood and plasma | oral, 60 mg, 0.5 h, geometric mean |  | blood-to-plasma ratio | 0.934
CC(=O)O[C@H]1C(=O)[C@@]2(C)[C@H]([C@H](OC(=O)c3ccccc3)[C@]3(O)C[C@H](OC(=O)[C@H](O)[C@@H](NC(=O)c4ccccc4)c4ccccc4)C(C)=C1C3(C)C)[C@]1(OC(C)=O)CO[C@@H]1C[C@@H]2O | refers to: Nausea | patients with advanced solid tumours | intravenous, dose not given, all grades, possibly related to drug |  | adverse event incidence | 31%
O=C(O)CCC(=O)O.[2H]C([2H])([2H])Oc1cc(C)c2[nH]ccc2c1CN1CC[C@@H](C2CC2)C[C@H]1c1ccc(C(=O)O)cc1 |  | human, plasma | 300 mg once daily, day 10, multiple ascending dose |  | Vss/F | 125 L
O=c1oc2c(O)c(O)cc3c(=O)oc4c(O)c(O)cc1c4c23 |  | rat, plasma | oral, 1000 mg/kg extract |  | apparent oral clearance | 20.5 ± 5.96 L/h
O=C(Nc1cnccc1Cl)N1CCN(Cc2ccc3c(c2)OC(F)(F)O3)CC1 | refers to: Ecchymosis | human healthy young women | 100 mg, multiple dose |  | adverse event incidence | 0%
CNC(=O)c1cc(Oc2ccc(NC(=O)Nc3cc(C(C)(C)C)nn3-c3ccc4ncccc4c3)c(F)c2)ccn1 | refers to: worst grade 3 | human | oral, dose not given, cycles 1 and 2, High Cmax subgroup |  | patients with any AE of special interest | 39%
c1cc2ccc3ccc4ccc5cccc6c(c1)c2c3c4c56 |  | polyethylene-water partitioning | PAH compilation |  | literature range of log K | 5.81 to 7.36 log units
Cn1cc(Nc2nccc(-c3ccc4c(c3)CN(C3COC3)CC[C@H]4NC(=O)c3cn(C(C)(C)C)nn3)n2)cn1 |  | human, whole blood | 50 mg twice daily, day 7 | reference: pre-dose baseline | granulocyte count change | 8.41%
NC1(C(=O)N[C@@H](CCO)c2ccc(Cl)cc2)CCN(c2nc[nH]c3nccc2-3)CC1 |  | metastatic CRPC patients | 400 mg b.i.d., grade 3 to 4, treatment-related, added: enzalutamide 160 mg daily |  | incidence of Arthralgia | 0%
Cc1cnc(N2CC3(CCOCC3)C2)c(C(=O)Nc2ccc(C(=O)N3CCc4cc(C(=O)Nc5c(C)cccc5F)sc4-c4ccccc43)cc2)c1 |  | dog | intravenous bolus, 0.1 mg/kg | reference: hepatic blood flow | plasma clearance | ~75%
N#Cc1ccc2c(c1)[C@H]1CCCN(C(=O)c3ccc4[nH]cnc4c3)[C@H]1C2 |  | human | 40 mg, end of trial |  | median ACTH level | 4.5 pmol/L
COc1cccc(OC)c1-c1cc(C(=O)NC2(C(=O)O)C3CC4CC(C3)CC2C4)nn1-c1ccc(C(=O)N(C)CCCN(C)CCCN(C)C(=O)CN2CCN(CC(=O)[O-])CCN(CC(=O)[O-])CCN(CC(=O)[O-])CC2)cc1C(C)C.[177Lu+3] (centres unmarked) |  | mouse HT-29 xenograft | 72 h, biodistribution | reference: tumour over pancreas | tumour-to-pancreas ratio | 63.7
CCOc1c([C@H](C)n2nc(C)c3c(N)ncnc32)cc(Cl)c(F)c1[C@@H]1CNC(=O)C1 |  | patients with B-cell malignancies, plasma | oral, 30 mg, day 15, all cohorts, monotherapy |  | Cmax | 2570 nM
C[Si](C)(C)O[Si](C)(C)O[Si](C)(C)O[Si](C)(C)C |  | octanol/water |  |  | octanol-water partition coefficient | 1.38e+08
C=CC(=O)Nc1cccc(-n2nc3c(=O)[nH]nc(N)c3c2-c2oc3ccc(C)cc3c2C)c1 |  | BALB/c nude mouse, whole blood | 1 µM, 0.5 h, 37 °C |  | remaining compound | 78.4%
Cc1c(O)c(=O)ccn1CCO.Cl | shake-flask, refers to: iron(III) complex | 1-octanol/Tris buffer | pH 7.4, ligand:iron 10:1 |  | partition coefficient | 0.003 ± 0.0005
C[C@@H]1CN(CC(=O)N2CC(C)(C)c3ncc(Cc4ccc(F)cc4)cc32)[C@@H](CN2CCOC[C@H]2C)CN1 |  | cynomolgus monkey, male | oral, 5 mg/kg, median |  | Tmax | 2 h
Cc1nc2cccc(OCC(C)(C)C(=O)NC(C)C)c2c(N)c1C(=O)O |  | male Swiss albino CD-1 mouse, bone marrow | oral, 1000 mg/kg, 36 h |  | PCE/NCE ratio | 0.85

Repeated from above:
SMILES | test | test system | setting | scale | measurement | result
COc1cc(Nc2ncc3c(n2)-c2ccc(Cl)cc2C(c2c(F)cccc2OC)=NC3)ccc1C(=O)O | refers to: decreased lymphocyte count, all grades | cancer patients, phase 1/2 | oral, dose not given, added: pembrolizumab |  | patients with adverse event | 75%
C=CC(=O)NC1CCN(c2ncc3ncnc(Nc4ccc(Oc5ccc6c(c5)ncn6C)c(C)c4)c3n2)CC1 | refers to: total radioactivity | healthy male human, whole blood and plasma | oral, 60 mg, 0.5 h, geometric mean |  | blood-to-plasma ratio | 0.934
CC(=O)O[C@H]1C(=O)[C@@]2(C)[C@H]([C@H](OC(=O)c3ccccc3)[C@]3(O)C[C@H](OC(=O)[C@H](O)[C@@H](NC(=O)c4ccccc4)c4ccccc4)C(C)=C1C3(C)C)[C@]1(OC(C)=O)CO[C@@H]1C[C@@H]2O | refers to: Nausea | patients with advanced solid tumours | intravenous, dose not given, all grades, possibly related to drug |  | adverse event incidence | 31%
O=C(O)CCC(=O)O.[2H]C([2H])([2H])Oc1cc(C)c2[nH]ccc2c1CN1CC[C@@H](C2CC2)C[C@H]1c1ccc(C(=O)O)cc1 |  | human, plasma | 300 mg once daily, day 10, multiple ascending dose |  | Vss/F | 125 L
O=c1oc2c(O)c(O)cc3c(=O)oc4c(O)c(O)cc1c4c23 |  | rat, plasma | oral, 1000 mg/kg extract |  | apparent oral clearance | 20.5 ± 5.96 L/h
O=C(Nc1cnccc1Cl)N1CCN(Cc2ccc3c(c2)OC(F)(F)O3)CC1 | refers to: Ecchymosis | human healthy young women | 100 mg, multiple dose |  | adverse event incidence | 0%
CNC(=O)c1cc(Oc2ccc(NC(=O)Nc3cc(C(C)(C)C)nn3-c3ccc4ncccc4c3)c(F)c2)ccn1 | refers to: worst grade 3 | human | oral, dose not given, cycles 1 and 2, High Cmax subgroup |  | patients with any AE of special interest | 39%
